Results from different studies.
Numbered parts are unrelated; each lists some results of a single study. Substitutions count along the parent as printed.

Series 1
Target: Interferon regulatory factor 5, full length, phosphomimetic (IRF5, Homo sapiens, UniProt Q13568-2, residues 1-514, K96S/S451D/S453D/S456D/S462D)
Method: protein-binding microarray
Molecule type: double-stranded DNA, one strand shown
Sample: in vitro
Concentration: 250 nM
Notes: 60-bp whole probe
With: salmon DNA 0.4 mg/ml
Relative to: random background probes
Reading: higher = stronger binding
Measurement: log fluorescence
Shared flanks, not repeated: GCCTAGCAC … GTCTTGATTCGCTTGACGCTGCTG
CCCTTTTAAGTTCTCTGAAGGTGCTAG: 0.115 z-score
TTAGGTTTCGGAACTGGGTTAGTGCTA: 5.93 z-score
GGTCCTCTAGGAATGTAACTGTGCTAG: -0.427 z-score
TTTATTTTTACATTATTACCGTGCTAG: 1.41 z-score
GTTGTTTTAAATTCTAATTAGTGCTAG: 0.766 z-score
TTAGATATCGGGCTTCGATTAGTGCTA: 1.33 z-score
GACGGATTCGGACTGGGGACGTGCTAG: -0.396 z-score
GACGGTTTCCTTTCCCTGTCGTGCTAG: 1.96 z-score
GACGGACTGGGTATCAGGACGTGCTAG: -0.231 z-score
TTAGATTTCTGACTGGATTAGTGCTAG: 0.637 z-score
TCAGGTATTTTTTTGTAACTGTGCTAG: 0.321 z-score
GACGGACTGGGTGTCGGGACGTGCTAG: -0.72 z-score
TTTTGTTGTTTTTTGGTTTCGTGCTAG: 4.64 z-score
GACCGACTGGGGTATCGGGACGTGCTA: 0.122 z-score
GACGGTATCGGGTTTCAGGACGTGCTA: 3 z-score
TTAGGTTTCGTGTATCGGTTAGTGCTA: 6.89 z-score
GAGGGACTGGGTATCGGGACGTGCTAG: 0.249 z-score
TTAGATATGAGTCTCGATTAGTGCTAG: 0.694 z-score

Series 2
Target: ABI1, truncated, D143A, DHFR fusion (Arabidopsis thaliana)
Method: DHFR PCA, deep sequencing
Sample: yeast
Notes: methotrexate growth selection, single substitutions
With: (+)-ABA 4.8 µM
Relative to: wild-type fitted maximum
Reading: higher = stronger binding
Measurement: relative binding score
Starting sequence: PYL1, truncated, DHFR fusion (Arabidopsis thaliana); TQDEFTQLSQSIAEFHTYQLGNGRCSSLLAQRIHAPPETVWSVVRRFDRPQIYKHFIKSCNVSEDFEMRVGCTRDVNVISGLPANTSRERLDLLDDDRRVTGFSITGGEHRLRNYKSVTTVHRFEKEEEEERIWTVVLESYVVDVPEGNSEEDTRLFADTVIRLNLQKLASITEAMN; partner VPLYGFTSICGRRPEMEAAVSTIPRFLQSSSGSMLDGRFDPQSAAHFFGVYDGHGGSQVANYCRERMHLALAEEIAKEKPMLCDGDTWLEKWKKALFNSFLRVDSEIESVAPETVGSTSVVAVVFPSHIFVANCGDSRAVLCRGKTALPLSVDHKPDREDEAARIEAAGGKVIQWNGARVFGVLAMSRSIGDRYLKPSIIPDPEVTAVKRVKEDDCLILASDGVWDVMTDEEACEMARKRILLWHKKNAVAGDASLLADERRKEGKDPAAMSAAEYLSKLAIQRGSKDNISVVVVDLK
A170P: -12.6%
M68W: 20%
P50D: -11.4%
G23T: 38.4%
E4D: 70.9%
V100G: -11.5%
T73V: 80.8%
F15C: 17.5%
E67A: 64.9%
N22G: 72.1%
R90I: 27.1%
L94Y: 41.9%
V145K: -5.68%
S117R: -11.9%
R88T: 73.3%
R132I: 73.3%
N22Q: 78.4%
F5K: 53.4%
L93S: 21.6%
I12K: 6.09%
N165D: 10.4%
F157K: -2.45%
E125H: 80.8%
R111A: 3.47%

Series 3
Target: PABPC1L2, full length, GST fusion (mouse, UniProt A0ABA7IW68)
Method: RNAcompete
Molecule type: RNA
Sample: in vitro
Concentration: 20 nM
Notes: 7-mer, probes averaged, single round
Relative to: mean of 7-mers
Reading: higher = stronger binding
Measurement: 7-mer Z-score
Construct (chain): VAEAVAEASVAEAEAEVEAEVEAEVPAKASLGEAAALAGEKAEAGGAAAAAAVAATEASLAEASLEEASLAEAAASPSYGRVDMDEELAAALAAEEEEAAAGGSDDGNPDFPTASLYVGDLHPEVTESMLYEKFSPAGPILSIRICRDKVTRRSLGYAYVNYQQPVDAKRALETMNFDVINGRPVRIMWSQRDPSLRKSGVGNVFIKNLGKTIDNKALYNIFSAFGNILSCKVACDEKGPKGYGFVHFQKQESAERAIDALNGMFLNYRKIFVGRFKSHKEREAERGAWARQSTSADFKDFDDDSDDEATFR
CUUUCCG: -0.478
AUUAGAG: 0.102
CUUAUUA: -0.244
GCUGAUG: -0.108
UACAGAG: 0.137
UACUGCU: -0.202
CCAGAUU: -0.278
AUAAGGA: 0.175
GAAUCUC: -0.318
ACCUAGC: -0.204
CAACCCA: -0.15
GUCUCUA: -0.327
CCUCUGA: -0.173
CUUAUCC: -0.391
UGAUUGU: -0.262
GUCCGGG: -0.0047
CCCAACU: -0.324
GUUCUGA: -0.316

Series 4
Target: CCNE2, cyclin fold, Cln2 fusion (human)
Method: yeast growth competition, sequencing
Sample: yeast
Notes: strong parent motif
Relative to: not given
Reading: higher = stronger binding
Measurement: normalised enrichment score
Starting sequence: WEE1 docking peptide (human); HKTFRKLRLFDTP; partner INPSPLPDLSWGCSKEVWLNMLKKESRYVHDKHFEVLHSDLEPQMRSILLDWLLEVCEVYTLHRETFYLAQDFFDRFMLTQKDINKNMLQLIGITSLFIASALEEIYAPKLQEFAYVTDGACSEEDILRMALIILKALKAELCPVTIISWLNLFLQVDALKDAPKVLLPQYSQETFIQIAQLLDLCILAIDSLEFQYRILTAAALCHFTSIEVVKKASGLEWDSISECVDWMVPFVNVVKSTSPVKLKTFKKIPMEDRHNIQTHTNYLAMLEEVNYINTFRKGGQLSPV
HETFRKLRLFDTP [K2E]: 0.956
HKTFRKLRLFPTP [D11P]: 0.968
HKTFRKLRLFDTA [P13A]: 0.158
HKKFRKLRLFDTP [T3K]: 0.317
HKTFRKLRLFFTP [D11F]: 1.55
HKTFRKLDLFDTP [R8D]: 0.0765
HKNFRKLRLFDTP [T3N]: -0.174
HKTFRKLLLFDTP [R8L]: 0.352
HKTFRKLRLFMTP [D11M]: 0.944
HKTFRKLRHFDTP [L9H]: 0.113
HKTFRKLRLEDTP [F10E]: 0.0647
HKTFRKLRLFDTW [P13W]: 0.624
EKTFRKLRLFDTP [H1E]: 0.736
HKTFRKLRLRDTP [F10R]: 1.25
HKTFRKLRRFDTP [L9R]: -0.0572
HKTFRKLRLKDTP [F10K]: 0.152
HVTFRKLRLFDTP [K2V]: 0.436
HKIFRKLRLFDTP [T3I]: 1.09
HKTFLKLRLFDTP [R5L]: 0.647
HPTFRKLRLFDTP [K2P]: 0.498
HKTFRKLRWFDTP [L9W]: 0.676
HKTFQKLRLFDTP [R5Q]: 0.368
HKTFRKLRLFDMP [T12M]: 1.56
HKTFRKLILFDTP [R8I]: 1.4
HKTFRKLRLDDTP [F10D]: 0.658

Series 5
Target: RNA binding protein fox-1 homolog 2, RRM domain, GST-SBP tag (RBFOX2, Homo sapiens, UniProt O43251-10, residues 100-194)
Method: RNA Bind-n-Seq
Molecule type: RNA
Sample: in vitro
Concentration: 365 nM
Notes: natural RNA segment, single round, ends assumed
Relative to: no-protein control
Reading: higher = stronger binding
Measurement: RBNS enrichment (R)
Residues (chain): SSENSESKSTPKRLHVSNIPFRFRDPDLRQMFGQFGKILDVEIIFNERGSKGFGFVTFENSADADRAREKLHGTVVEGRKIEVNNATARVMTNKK
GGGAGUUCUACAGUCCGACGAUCUCAGUUCAGCUUAAAGAACGCCAGUUAGGCCGGGCGUGGUGGCGCACGUCUUUAAUCCCAGCACUUGGGAGGCAGGCAGAGAUAGGCGGAUUUCUGAGUUUGAGGCCAGCUGGAAUUCUCGGGUGCCAA: 0.527
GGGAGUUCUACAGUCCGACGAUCUGUGCACGUGCACACAUGUGCACGUUUGUAUGUAUGGAAAUAAACUUAUAAAUGGGGACGUAUUGGAGAAGGAAAUACAUAGACCUACAACUUUGAGCAAAUAGCAGUGAUGGAAUUCUCGGGUGCCAA: 0.999
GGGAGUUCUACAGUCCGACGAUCAAGAGUUUACCUCUUCUAGACAUUUAUGCCCAAUGGUGUCACACAUGAUCAUUUGCUCCUGCUCUAAUUUUAAUGUGCAUACAAAAAAUAUACCAAAAAUGUUAUUGUAAUGGAAUUCUCGGGUGCCAA: 0.597
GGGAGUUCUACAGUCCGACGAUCAACUGGCUCCUGGUCUCUAGCCUGUGACCGGCUUGCUUAAUGUCCUCAGAACCUGACAGGUAUGUUCAAAACUGUCAGUCUGUUUGUGCCUUAAAAGGGUGAGAAGGGCGUGGAAUUCUCGGGUGCCAA: 1.04
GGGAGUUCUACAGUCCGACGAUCGAGGGGGUGGUCCCUUAAUGGCCCCUGAAGAUGUUGGAUGUGUUUCUCAAAAGCUGCUUUGUCUCUUUCCUGAGUUUAAUAGUGAAACUACUAAACAUUAAUAGAUUUGCUGGAAUUCUCGGGUGCCAA: 0.279
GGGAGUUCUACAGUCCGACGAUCCCUGGGUUUCCUUGGCUUCCUGCAGCAAAUUGGGCAGUUCUCUGCCCCUUGCCUAAAAGCCUGUACCUCUGGAUUGGCGGAAGUAAAUCUGGAAGGAUUCUCACUCGUAUUGGAAUUCUCGGGUGCCAA: 0.196
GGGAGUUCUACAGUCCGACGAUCUCAUGGGUGUCCCCACCCACUCCUCAGUGUUUGUGGAGUCGAGGAGCCAACCCCAGCCUCCUGCCAGGAUCACCUCGGCGGUCACACUCCAGCCAAAUAGUGUUCUCGGGUGGAAUUCUCGGGUGCCAA: 0.236
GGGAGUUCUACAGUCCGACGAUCGCAUGGGGCUGGCAUGCAGGAAGUGCCCUGUAUCUGCAGCAGGAGGCUCUGGGCUGGGACAUGGCUUAGAGUGACUUUCUGUCUUAGAAAUCAUGGUAUAUCCUCAGGAGUGGAAUUCUCGGGUGCCAA: 12.6
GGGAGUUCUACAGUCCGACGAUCGUUUCAAUUUAGGCCAAGUACUAGAACAAGGAAUCAUCAAAGAUAUAUGGGUAGAUUUUAUUAUGUACACAAAGACAAAUGGACCCUGAGAAAUGUAUGCGUUUGUAAACUGGAAUUCUCGGGUGCCAA: 1.3
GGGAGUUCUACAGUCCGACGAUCAGGAAGACAGACUCAUCCAGCGCCACCUCGGGCCCUCCCAGCACACGCAUGGUCUCUUCACUGCUGCCCUCAAUCCGAGUGUCCUUCCCUGCCCAGUCCUAGCCUCCCCGUGGAAUUCUCGGGUGCCAA: 2.7
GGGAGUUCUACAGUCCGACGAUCAGUCCUCCCACCCCAGGACUCUAAAUUAUUGGGGUAAAAAACAGCCUUGCAAGAAAAAGGGGAGCUAUUUUUGCUUUUUAUGUUUUUUAUUGUUAAACUUGUAUCCCUUUUGGAAUUCUCGGGUGCCAA: 0.856
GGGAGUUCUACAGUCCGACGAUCAGAAAAAAGAAAGAAAGAAAAAUGAUUAGAAAUUGAGAACUAUUUUACGUGUUUCUAAGUUGUUGGCUACAUCAAAGAGAUCAUCUGUAUUCUGCAUAUGGGCUGGCUUUUGGAAUUCUCGGGUGCCAA: 1.04

For quick reference, copied from above (series 2):
R111A: 3.47%
N165D: 10.4%
T73V: 80.8%
A170P: -12.6%
E125H: 80.8%
V145K: -5.68%
